Experimental data gathered from unrelated publications.
Compare with care: the assays were run in different laboratories. Values joined by “and” are separate records of one study, mostly repeats; a detail may differ. Numbers after ± are the reported error.
T1: riboswitch RNA yjdF aptamer (Bacillus subtilis); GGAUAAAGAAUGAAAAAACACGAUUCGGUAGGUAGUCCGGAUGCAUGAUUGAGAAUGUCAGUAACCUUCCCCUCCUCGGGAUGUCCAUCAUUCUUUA
Chain of UniProt P35580 (whole entry, looked up): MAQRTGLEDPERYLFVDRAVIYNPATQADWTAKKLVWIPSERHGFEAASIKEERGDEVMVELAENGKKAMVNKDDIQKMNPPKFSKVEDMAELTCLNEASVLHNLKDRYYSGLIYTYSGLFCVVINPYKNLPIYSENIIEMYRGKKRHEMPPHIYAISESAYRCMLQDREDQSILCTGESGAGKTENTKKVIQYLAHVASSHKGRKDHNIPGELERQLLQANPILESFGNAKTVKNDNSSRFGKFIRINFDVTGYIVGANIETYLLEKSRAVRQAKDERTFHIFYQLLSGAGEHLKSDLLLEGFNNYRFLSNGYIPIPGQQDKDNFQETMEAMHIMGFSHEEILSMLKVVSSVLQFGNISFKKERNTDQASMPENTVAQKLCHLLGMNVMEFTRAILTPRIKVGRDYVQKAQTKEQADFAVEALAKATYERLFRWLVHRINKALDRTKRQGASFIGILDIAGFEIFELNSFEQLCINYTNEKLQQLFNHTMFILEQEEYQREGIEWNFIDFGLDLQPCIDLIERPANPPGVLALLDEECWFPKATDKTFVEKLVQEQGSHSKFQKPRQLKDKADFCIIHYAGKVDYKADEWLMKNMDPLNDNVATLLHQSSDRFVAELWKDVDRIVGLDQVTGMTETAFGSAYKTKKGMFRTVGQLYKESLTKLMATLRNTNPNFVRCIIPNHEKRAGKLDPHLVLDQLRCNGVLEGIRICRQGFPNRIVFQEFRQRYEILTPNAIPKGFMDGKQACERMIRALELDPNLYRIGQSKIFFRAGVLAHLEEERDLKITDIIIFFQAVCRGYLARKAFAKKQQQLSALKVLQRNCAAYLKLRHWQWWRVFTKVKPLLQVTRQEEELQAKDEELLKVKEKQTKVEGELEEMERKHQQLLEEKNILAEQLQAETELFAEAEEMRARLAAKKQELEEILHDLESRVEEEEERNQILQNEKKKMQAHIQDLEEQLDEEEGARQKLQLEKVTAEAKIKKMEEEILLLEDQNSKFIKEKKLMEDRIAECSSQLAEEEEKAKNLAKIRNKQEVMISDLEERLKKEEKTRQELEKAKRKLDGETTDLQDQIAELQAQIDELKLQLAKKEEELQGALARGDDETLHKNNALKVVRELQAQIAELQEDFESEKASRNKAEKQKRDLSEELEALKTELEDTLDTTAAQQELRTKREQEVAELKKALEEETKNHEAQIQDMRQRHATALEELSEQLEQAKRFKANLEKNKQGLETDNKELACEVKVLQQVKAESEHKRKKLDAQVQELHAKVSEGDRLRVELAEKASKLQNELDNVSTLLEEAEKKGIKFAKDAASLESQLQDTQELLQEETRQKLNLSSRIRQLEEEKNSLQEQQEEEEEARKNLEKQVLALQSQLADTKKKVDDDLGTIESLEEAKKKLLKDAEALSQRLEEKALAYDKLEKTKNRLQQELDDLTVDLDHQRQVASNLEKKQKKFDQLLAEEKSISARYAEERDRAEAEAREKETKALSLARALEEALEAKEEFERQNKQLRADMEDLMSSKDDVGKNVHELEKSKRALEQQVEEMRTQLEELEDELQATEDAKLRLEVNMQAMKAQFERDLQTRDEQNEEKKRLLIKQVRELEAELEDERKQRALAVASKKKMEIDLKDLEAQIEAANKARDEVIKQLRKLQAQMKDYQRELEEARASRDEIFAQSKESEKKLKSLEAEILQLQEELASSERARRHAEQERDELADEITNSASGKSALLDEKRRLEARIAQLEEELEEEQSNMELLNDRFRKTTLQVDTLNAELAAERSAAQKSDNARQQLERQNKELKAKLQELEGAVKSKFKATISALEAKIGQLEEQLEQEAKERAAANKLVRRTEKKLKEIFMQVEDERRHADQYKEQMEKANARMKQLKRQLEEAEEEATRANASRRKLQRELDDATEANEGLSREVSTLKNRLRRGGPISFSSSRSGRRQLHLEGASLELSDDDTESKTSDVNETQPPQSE
Chain of UniProt P51575 (whole entry, unmodified, looked up): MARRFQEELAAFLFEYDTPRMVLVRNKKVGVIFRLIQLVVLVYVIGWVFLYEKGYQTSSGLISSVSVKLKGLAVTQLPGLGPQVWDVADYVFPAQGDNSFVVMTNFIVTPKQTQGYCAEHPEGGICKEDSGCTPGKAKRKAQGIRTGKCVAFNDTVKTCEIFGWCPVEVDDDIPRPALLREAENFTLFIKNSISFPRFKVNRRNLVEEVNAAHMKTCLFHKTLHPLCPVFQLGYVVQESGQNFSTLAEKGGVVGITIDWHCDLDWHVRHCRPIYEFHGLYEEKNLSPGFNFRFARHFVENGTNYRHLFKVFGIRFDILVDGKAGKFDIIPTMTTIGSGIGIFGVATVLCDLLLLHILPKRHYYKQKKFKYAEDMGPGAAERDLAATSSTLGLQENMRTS
Chain of UniProt P43681 (whole entry, looked up): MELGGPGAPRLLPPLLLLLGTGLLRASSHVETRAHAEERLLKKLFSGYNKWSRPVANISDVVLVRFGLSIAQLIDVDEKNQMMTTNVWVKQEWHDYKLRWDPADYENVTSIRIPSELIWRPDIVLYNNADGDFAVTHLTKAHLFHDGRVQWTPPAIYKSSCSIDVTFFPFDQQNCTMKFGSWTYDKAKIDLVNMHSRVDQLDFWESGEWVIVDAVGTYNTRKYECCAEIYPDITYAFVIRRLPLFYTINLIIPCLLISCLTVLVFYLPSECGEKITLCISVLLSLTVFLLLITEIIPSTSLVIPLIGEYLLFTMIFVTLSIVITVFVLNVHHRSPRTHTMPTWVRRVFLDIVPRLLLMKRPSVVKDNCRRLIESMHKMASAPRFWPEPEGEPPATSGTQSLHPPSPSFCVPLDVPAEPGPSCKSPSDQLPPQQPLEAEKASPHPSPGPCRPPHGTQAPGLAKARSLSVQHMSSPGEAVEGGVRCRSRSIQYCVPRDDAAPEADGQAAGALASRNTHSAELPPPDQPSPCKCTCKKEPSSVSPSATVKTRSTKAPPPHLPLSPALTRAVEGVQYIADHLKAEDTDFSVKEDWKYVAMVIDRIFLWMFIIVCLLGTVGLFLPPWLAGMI
Chain of UniProt P00519 (whole entry, unmodified, looked up): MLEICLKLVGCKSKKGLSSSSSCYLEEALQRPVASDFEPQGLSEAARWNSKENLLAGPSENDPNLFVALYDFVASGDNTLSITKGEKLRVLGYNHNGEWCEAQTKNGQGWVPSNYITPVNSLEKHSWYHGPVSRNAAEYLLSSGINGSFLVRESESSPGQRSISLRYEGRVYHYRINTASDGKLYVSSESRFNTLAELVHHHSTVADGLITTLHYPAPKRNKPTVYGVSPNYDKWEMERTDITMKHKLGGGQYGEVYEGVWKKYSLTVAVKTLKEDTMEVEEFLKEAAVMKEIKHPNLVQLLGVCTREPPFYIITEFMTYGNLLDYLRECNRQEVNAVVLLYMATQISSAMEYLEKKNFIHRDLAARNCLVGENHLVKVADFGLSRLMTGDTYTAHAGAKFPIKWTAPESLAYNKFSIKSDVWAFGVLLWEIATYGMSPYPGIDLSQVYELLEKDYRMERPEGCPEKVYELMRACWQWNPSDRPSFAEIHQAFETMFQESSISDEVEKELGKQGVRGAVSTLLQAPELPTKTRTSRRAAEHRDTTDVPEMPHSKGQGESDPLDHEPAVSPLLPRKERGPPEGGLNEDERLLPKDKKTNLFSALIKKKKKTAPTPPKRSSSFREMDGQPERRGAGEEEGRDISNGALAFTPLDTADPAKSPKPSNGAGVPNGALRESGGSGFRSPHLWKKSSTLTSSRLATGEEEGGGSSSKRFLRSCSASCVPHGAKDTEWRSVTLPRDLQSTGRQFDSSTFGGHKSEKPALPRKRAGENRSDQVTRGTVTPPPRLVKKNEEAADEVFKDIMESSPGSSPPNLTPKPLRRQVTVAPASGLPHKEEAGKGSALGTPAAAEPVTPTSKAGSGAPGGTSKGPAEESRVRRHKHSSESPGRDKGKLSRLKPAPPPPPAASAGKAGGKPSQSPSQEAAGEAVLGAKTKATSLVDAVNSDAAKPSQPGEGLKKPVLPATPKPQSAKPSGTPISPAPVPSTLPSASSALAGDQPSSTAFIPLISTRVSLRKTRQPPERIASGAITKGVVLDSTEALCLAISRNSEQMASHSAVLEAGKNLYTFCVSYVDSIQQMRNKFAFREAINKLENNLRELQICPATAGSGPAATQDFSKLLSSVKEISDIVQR
Chain of UniProt Q9H093 (whole entry, looked up): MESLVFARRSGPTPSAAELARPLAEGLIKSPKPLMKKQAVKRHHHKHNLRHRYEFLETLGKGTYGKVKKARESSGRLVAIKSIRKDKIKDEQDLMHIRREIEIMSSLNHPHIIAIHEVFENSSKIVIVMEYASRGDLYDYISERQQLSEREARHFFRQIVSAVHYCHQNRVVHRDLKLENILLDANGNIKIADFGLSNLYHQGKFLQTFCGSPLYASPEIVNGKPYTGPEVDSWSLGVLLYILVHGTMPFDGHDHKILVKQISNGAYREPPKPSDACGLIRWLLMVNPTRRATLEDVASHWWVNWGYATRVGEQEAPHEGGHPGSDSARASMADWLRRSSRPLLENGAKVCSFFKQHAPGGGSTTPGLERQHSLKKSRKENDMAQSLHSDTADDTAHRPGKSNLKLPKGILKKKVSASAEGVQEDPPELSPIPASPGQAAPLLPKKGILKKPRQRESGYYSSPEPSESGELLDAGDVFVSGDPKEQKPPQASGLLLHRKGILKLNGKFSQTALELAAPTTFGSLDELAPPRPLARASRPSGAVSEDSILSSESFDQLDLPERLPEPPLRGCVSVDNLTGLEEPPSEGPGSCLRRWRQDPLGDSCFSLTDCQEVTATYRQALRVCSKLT
Chain of UniProt P0AC13 (whole entry, looked up): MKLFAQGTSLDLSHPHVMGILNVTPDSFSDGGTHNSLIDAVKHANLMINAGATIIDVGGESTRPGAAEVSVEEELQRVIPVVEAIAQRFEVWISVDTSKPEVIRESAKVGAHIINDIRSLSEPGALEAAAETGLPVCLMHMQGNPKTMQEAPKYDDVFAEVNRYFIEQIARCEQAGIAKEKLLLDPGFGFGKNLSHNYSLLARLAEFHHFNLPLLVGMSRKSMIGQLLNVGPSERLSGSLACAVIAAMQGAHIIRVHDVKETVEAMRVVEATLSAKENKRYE

For CCOc1ccc(NC(=O)O[C@H](Cn2nc(C(C)C)cc2C(C)C)C(C)C)cc1, the ACh-evoked current was 120 ± 19% (Neuronal acetylcholine receptor; alpha4/beta2 (Homo sapiens, UniProt P17787+P43681); two-electrode voltage clamp; Xenopus oocytes; 10 µM, low-sensitivity stoichiometry, added: ACh 10 µM; relative to: ACh alone).
With C[C@H](CCC(C)(C)O)[C@H]1CC[C@H]2[C@@H]3CC=C4C[C@@](C)(O)CC[C@]4(C)[C@H]3CC[C@]12C the current response was 271 ± 16% (Glutamate NMDA receptor; GRIN1/GRIN2B (GRIN1/GRIN2B, Homo sapiens, UniProt Q05586+Q13224, N650A); positive allosteric modulator, two-electrode voltage clamp; Xenopus oocytes expressing GluN1-N650A; 10 µM, 0.02% cremophor, added: 100 µM glutamate and glycine; relative to: without compound).
CCCCC[C@H](O)/C=C/[C@H]1C(=O)C[C@H](O)[C@@H]1C/C=C\CCCC(=O)O — result for “Gs protein activation”: 60.3% (PTGDR (Homo sapiens, UniProt Q13258, M112A); agonist, ONE-GO BRET; 0.01953 µM (19.5 nM); relative to: wild-type receptor maximum).
O=C(COP(=O)(O)O)[C@@H](O)[C@H](O)[C@H](O)COP(=O)(O)O: “thermal stability ratio” 0.468 and 0.973 and 0.5 (Myosin-10 (Homo sapiens, UniProt P35580); thermal proteome profiling, measured: MYH10; HepG2 cell lysate; concentration not given, 57 over 37 °C; relative to: compound over control).
The ΔH of CC[C@H](C)[C@H](NC(=O)[C@H](CCCNC(=N)N)NC(=O)[C@H](Cc1c[nH]cn1)NC(=O)[C@H](CCCNC(=N)N)NC(=O)[C@H](CC(=O)O)NC(=O)[C@H](CC(=O)O)NC(=O)[C@@H](NC(=O)[C@H](CC(=O)O)NC(=O)[C@@H]1CCCN1C(=O)[C@@H](N)CC(C)C)[C@@H](C)O)C(=O)N[C@@H](CCC(=O)O)C(=O)N[C@@H](CCC(=O)O)C(=O)N[C@@H](CCCCN)C(=O)N[C@@H](CCCNC(=N)N)C(=O)N[C@@H](CCCCN)C(=O)N[C@@H](CCCNC(=N)N)C(=O)N[C@H](C(=O)N[C@@H](Cc1ccc(O)cc1)C(=O)N[C@@H](CCC(=O)O)C(=O)N[C@H](C(=O)N[C@@H](Cc1ccccc1)C(=O)N[C@@H](CCCCN)C(=O)N[C@@H](CO)C(=O)N[C@H](C(=O)N[C@@H](CCSC)C(=O)N[C@@H](CCCCN)C(=O)N[C@@H](CCCCN)C(=O)N[C@@H](CO)C(=O)N1CCC[C@H]1C(=O)N[C@@H](C)C(=O)N[C@@H](CC(N)=O)C(=O)NCC(=O)N1CCC[C@H]1C(=O)O)[C@@H](C)CC)[C@@H](C)O)[C@@H](C)O is reported as -2.5 ± 0.01 kcal/mol (NF-kappa-B inhibitor alpha (Homo sapiens, UniProt P25963); binding, ITC; pH 7.5, 293 K, 50 mM NaCl).
Cc1cc2nc3[nH]c(=O)[nH]c(=O)c3nc2cc1C gave a Kd of 1800 nM (T1, riboswitch RNA yjdF aptamer (Bacillus subtilis); fluorescence titration; added: 380 nM lumichrome).
The melting temperature of CC(=O)OCc1nn(C)c2nc(N)[nH]c(=O)c2c1=O is reported as 62.9 °C (folP (Bacteria, UniProt P0AC13); CETSA HiBiT; Escherichia coli, whole cells).
The remaining binding of CC1CCCN1c1nccc(-c2cnn3ncccc23)n1 (stereo not drawn) is reported as 100% (ABL1 (Homo sapiens, UniProt P00519, F317I); KINOMEscan; 1 µM).
COc1cc(Nc2ncc3c(n2)-c2ccc(Cl)cc2C(c2c(F)cccc2OC)=NC3)ccc1C(=O)O gave a remaining activity of 32% (ABL1; kinase activity; 1 µM).
The inhibition of CC[C@@H]1[C@H](F)C(=O)N[C@@H]1COc1nccc2cc(C(N)=O)c(OC)cc12 is reported as -5.2% (STK4 (Homo sapiens, UniProt Q13043); ATP-site probe binding, ActivX profiling, measured: MST1; THP-1 cell lysate; 0.04 mM, Lys1 site).
O=c1nc(SCc2cc(F)cc(C(F)(F)F)c2)nc(SCc2csc3ccc(Cl)cc23)[nH]1 gave a linear DNA of 3.91% (TOP2A (Homo sapiens, UniProt P11388); DNA cleavage; 15.6 µM, replicate 1).
The specific binding of Nc1ncnc2c1ncn2[C@@H]1O[C@H](COP(=O)(O)CP(=O)(O)OP(=O)(O)O)[C@@H](O)[C@H]1O is reported as 2940 CCPM and 3330 CCPM (P2X purinoceptor 1 (P2RX1, Homo sapiens, UniProt P51575, K215A); saturation binding; HEK293; 52 nM).
For CCCCCCCCCCCCC/C=C/[C@@H](O)[C@H](CO)NC(=O)CCCCCCCCCCCCCCCCCCC, “bound endogenous lipid” read 1.5 (Protein SET (SET, Homo sapiens, UniProt Q01105, K222D); lipid binding, GFP pull-down LC-MS/MS; A549 overexpressing GFP-tagged protein; unit not given; relative to: vector-transfected cells).
The fold change of O=C1C[C@@H](c2ccccc2)Oc2cc(O)cc(O)c21 is reported as 1.29 (Aryl hydrocarbon receptor (Danio rerio, UniProt Q9YGV3); reporter gene, agonist, luciferase reporter; ZF-4; 1111.11 µM; relative to: vehicle control).
For C[C@@H](c1ccc(-n2cnc3c(N)ncnc32)cc1)N1CCc2nn(C)c(Cc3ccccc3)c2C1=O, the remaining binding was 78% (NUAK2 (Homo sapiens, UniProt Q9H093); KINOMEscan; 0.1 µM; relative to: DMSO control).

Repeated from above:
O=C(COP(=O)(O)O)[C@@H](O)[C@H](O)[C@H](O)COP(=O)(O)O: “thermal stability ratio” 0.468 and 0.973 and 0.5 (Myosin-10 (Homo sapiens, UniProt P35580); thermal proteome profiling, measured: MYH10; HepG2 cell lysate; concentration not given, 57 over 37 °C; relative to: compound over control).
